Results from different studies.
Parts stem from different laboratories: compare values within a part only. Positions count from the first letter of the parent shown.

Study 1
Target: Interferon regulatory factor 3, full length, phosphomimetic (IRF3, Homo sapiens, UniProt Q14653, residues 1-427, S386D/S396D/S398D/S402D/T404D/S405D)
Sequence of UniProt Q14653 (whole entry, unmodified, looked up): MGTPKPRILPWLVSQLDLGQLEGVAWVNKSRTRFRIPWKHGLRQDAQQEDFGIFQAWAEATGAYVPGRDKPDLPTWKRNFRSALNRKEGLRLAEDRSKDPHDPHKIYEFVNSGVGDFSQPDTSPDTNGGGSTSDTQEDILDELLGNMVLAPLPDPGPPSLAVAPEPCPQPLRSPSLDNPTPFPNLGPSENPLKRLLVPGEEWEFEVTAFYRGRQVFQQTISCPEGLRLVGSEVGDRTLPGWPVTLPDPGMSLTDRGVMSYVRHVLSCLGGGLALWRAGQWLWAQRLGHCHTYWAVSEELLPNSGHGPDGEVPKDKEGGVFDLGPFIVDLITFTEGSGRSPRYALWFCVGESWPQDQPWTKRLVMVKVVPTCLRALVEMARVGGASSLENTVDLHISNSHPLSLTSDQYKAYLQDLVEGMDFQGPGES
Technique: protein-binding microarray
Form: double-stranded DNA, one strand shown
Matrix: in vitro
Tested at: 2540 nM top
Setting: 60-bp whole probe
Together with: salmon DNA 0.4 mg/ml
Baseline: random background probes
Direction: higher = stronger binding
Shared flanks, not repeated: GCCTAGCAC … GTCTTGATTCGCTTGACGCTGCTG
Strand | fitted relative affinity [z-score]
TTAGATATCGGGTTACGATTAGTGCTA | 0.344
TTAGTTTTCGACACTGGGTTAGTGCTA | 1.36
TGGGCTACCGGGTCCCTCTTGTGCTAG | -0.697
TCATCTTTGCTCATTTTTACTGTGCTA | 1.11
GCTAGTGTGCCATATTTATCTGTGCTA | 0.0676
TTAGATATCGGCTATCGATTAGTGCTA | -0.333
GACGGACTGGACACTGGAGACGTGCTA | -0.603
TTAGGTAACGACTATCGGTTAGTGCTA | 0.156
TGAGGTTTCGGGTATCGGTTAGTGCTA | 4.21
TCAACTTGTCTTTTCATACTGTGCTAG | 1.23

Study 2
Target: Histone acetyltransferase KAT6A, winged helix 2, GST fusion (KAT6A, Homo sapiens, UniProt Q92794, residues 85-181)
Technique: protein binding microarray
Form: double-stranded DNA, one strand shown
Matrix: in vitro
Tested at: not given
Setting: 8-mer, flanks averaged, mean of 2 arrays, mostly near background
Baseline: not given
Direction: higher = stronger binding
Construct (chain): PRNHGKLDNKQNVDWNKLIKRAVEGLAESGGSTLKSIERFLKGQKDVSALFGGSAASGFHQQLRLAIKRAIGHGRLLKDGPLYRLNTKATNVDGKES
Strand | E-score
TCTGATCA | 0.105
ATCTTAAG | -0.0539
CTTTATCA | 0.221
CTAACTGA | 0.0678
CACCCTAG | 0.0581
ATGCACAC | 0.108
GCGGGATA | 0.0226
CTTACGCA | 0.0588
CAGATATA | 0.00658
GACCCCAC | 0.0982
CACCCGTG | 0.0281
AAGACCCG | 0.00997

Study 3
Target: CCNB3, cyclin fold, Cln2 fusion (human)
Technique: yeast growth competition, sequencing
Matrix: yeast
Setting: strong parent motif
Baseline: not given
Direction: higher = stronger binding
Starting sequence: RBL2 docking peptide (human); STTRRRLFVENDS
Variant | normalised enrichment score
N11T | 0.836
F8W | 0.0993
V9G | 0.759
L7A | 0.623
N11L | 0.63
D12E | 0.386

Mixed results
Substance | target | assay | test system | conditions | how to read | endpoint | result
PhoQ, residues 284 288 289 292 302 303 SVTLVV | PhoP, residues 12 14 15 18 19 HHYTI (Escherichia coli, UniProt P23836) | Sort-seq, refers to: YFP reporter | E. coli | PhoQ-PhoP variant library, together with: 10 µM Mg2+ | baseline: high Mg2+ state, higher = stronger signaling | fold induction | 0.944

A few entries again (study 2):
Strand | E-score
CACCCTAG | 0.0581
ATGCACAC | 0.108
GCGGGATA | 0.0226
CTTACGCA | 0.0588
